Measurements of several laboratories.
Numbers after ± are the reported error.
Target: fMet-Leu-Phe receptor (FPR1, Homo sapiens, UniProt P21462)

Substance = COCCN1C(=O)C(O)=C(C(=O)c2ccccc2)C1c1cc(OC)ccc1OC (stereo not drawn); observed = calcium signal; action = antagonist; measurement = IC50; value = 1.7 µM
Substance = CC1=NN(CC(=O)Nc2ccc(Br)cc2)C(=O)CC1C (racemic); observed = calcium signal; action = agonist; measurement = EC50; value = 13 µM
Substance = CCCN1C(=O)C(O)=C(C(=O)c2ccccc2)C1c1cc(OC)ccc1OC (stereo not drawn); observed = calcium signal; action = antagonist; measurement = IC50; value = 1.5 µM
Substance = CC1(C)CC[C@]2(C(=O)O)CC[C@]3(C)C(=CC[C@@H]4[C@@]5(C)CC[C@H](O)C(C)(C)[C@@H]5CC[C@]43C)[C@@H]2C1; observed = calcium signal; measurement = IC50; value = 14.5 µM
Substance = CCCCCCN1C(=O)C(O)=C(C(=O)c2ccc(C)cc2)C1c1ccc(OC)cc1OC (stereo not drawn); observed = calcium signal; action = antagonist; measurement = IC50; value = 3.7 µM
Substance = (+)-episesamin; observed = calcium flux; action = agonist; cells = HL-60 cells transfected with FPR1; measurement = EC50; value = 54.8 ± 5.2 µM
Substance = CC1=NN(CC(=O)Nc2ccc(Br)cc2)C(=O)CC1c1ccccc1 (racemic); observed = calcium signal; action = agonist; measurement = EC50; value = 4.1 µM
Substance = C[C@H](CCC(=O)O)[C@H]1CC[C@H]2[C@@H]3[C@H](O)C[C@@H]4C[C@H](O)CC[C@]4(C)[C@H]3CC[C@]12C; observed = calcium signal; measurement = IC50; value = 19.9 µM
Substance = COc1ccc(C2(CNC(=O)[C@](C)(Cc3c[nH]c4ccccc34)NC(=O)Nc3ccc([N+](=O)[O-])cc3)CCCCC2)nc1; observed = calcium mobilization; action = agonist; cells = HL-60 cells expressing FPR1; measurement = EC50; value = 0.33 ± 0.12 µM
